Results gathered from unrelated publications.
Compare with care: the assays were run in different laboratories. Values joined by “and” are separate records of one study, mostly repeats; a detail may differ. Numbers after ± are the reported error. ≈ marks a conversion by molar mass, not a printed value.

Under “patients with decreased platelet”, COc1cc2nccc(Oc3ccc(NC(=O)c4cc5c(n(-c6ccccc6)c4=O)CCCC5=O)nc3)c2cc1OC is recorded as 33.3% (human, relapsed/refractory AML; oral, 6 mg once daily, grade ≥3, any causality).
For O=C1CCCCN1c1ccc(CO[C@@H]2COc3nc([N+](=O)[O-])cn3C2)cn1, the aqueous solubility was 28.3 µg/mL (≈ 75.8 µM) (aqueous buffer; pH 7.4).
Under “total plasma concentration”, CCN1CCN(C(=O)N[C@@H](C(=O)N[C@@H]2C(=O)N3[C@@H]2SC(C)(C)[C@@H]3C(=O)O)c2ccccc2)C(=O)C1=O is recorded as 13 mg/L (LC-MS/MS; human patients, plasma; dose not given, therapeutic drug monitoring, median).
For O=C(O)CCC(=O)O.[2H]C([2H])([2H])Oc1cc(C)c2[nH]ccc2c1CN1CC[C@@H](C2CC2)C[C@H]1c1ccc(C(=O)O)cc1, “TEAE elevated monocyte” read 0% (healthy Chinese subjects; 300 mg once daily, multiple ascending dose).
With O=C(O)CSc1nnc(Br)n1-c1ccc(C2CC2)c2ccccc12 the body weight was 39 g and 38 g and 35.4 g and 33.8 g and 42.2 g (KM mouse, chronic hyperuricaemia model; dose not given, day 29).
The Cmax of CCOc1c([C@H](C)n2nc(C)c3c(N)ncnc32)cc(Cl)c(F)c1[C@@H]1CNC(=O)C1 is reported as 3.77 µM (human, DLBCL, plasma; oral, 30 mg, day 15, geometric mean).
With Cc1cccc(CNC(=O)c2cn(CCNC(=O)c3ccccc3S)c3cc4c(cc3c2=O)OC(F)(F)O4)n1 the half-life was 10.7 ± 0.48 h (Sprague-Dawley rat, male, plasma; intravenous, 20 mg/kg of parent drug).
CCc1c(-c2ccccc2)c(-c2ccccc2)nn1-c1ccccc1-c1cccc(OCC(=O)O)c1 gave a concentration of 4900 ng/mL and 2630 ng/mL (Sprague-Dawley rat, plasma; oral, 10 mg/kg, 1 h).
The median Tmax of COc1ncc(-c2nc3c(n2C(C)C)[C@H](c2ccc(Cl)cc2)N(c2cc(Cl)cn(C)c2=O)C3=O)c(OC)n1 is reported as 2 h (human patients, plasma; oral, 20 mg, low-dose arm, cycle 2 day 1).
CC(C)(C(=O)N1CCOc2c(C#N)cncc2C1)C(F)F — result for “subjects with cardiac disorder TEAE”: 16.7% (human, both sexes; oral, 20 mg single dose).
CO[C@@H]1[C@H](O)[C@@H](CO)O[C@H]1n1c([N+](=O)[O-])nc2c(=O)[nH]c(N)nc21 — result for “nucleoside remaining fraction”: 0.688 (depurination, RP-HPLC; citrate-phosphate buffer 0.5 mM; 1272 min, pH 7, 37 °C).
C[C@@H](Oc1ccc(S(C)(=O)=O)cc1C(=O)N1C[C@@H]2C[C@]2(c2cc(C(F)(F)F)on2)C1)C(F)(F)F — result for “subjects with nervous system disorders”: 66.7% (human; oral, 25 mg).
Cc1nc2cccc(OCC(C)(C)C(=O)NC(C)C)c2c(N)c1C(=O)O — result for “micronucleated polychromatic erythrocytes”: 0.04% (male Swiss albino CD-1 mouse, bone marrow; oral, 500 mg/kg, 24 h).
The urinary excretion of CCOCC(=O)N1CCC[C@H](C(=O)NCc2nc(-c3ccc(C)nc3)cs2)C1 is reported as 2.7% (Sprague-Dawley rat, male, urine; intravenous, 1 mg/kg, 24 h; relative to: dose).
COc1cc(Cl)c(C(=O)N[C@@H](CN[C@H]2CC[C@@H](N)CC2)Cc2ccc(C#N)cc2)cc1-c1ccc(CN[C@H](C)c2ccc(C)cc2)o1 gave a blood clearance of 20 mL/min/kg (mouse liver microsomes; 1 µM, pH 7.4).
For Cc1ccc([C@@H]2O[C@H](CO)[C@@H](O)[C@H](O)[C@H]2O)cc1Cc1ccc(-c2ccc(F)cc2)s1, “urinary magnesium excretion change” read 6.77 mg (Japanese type 2 diabetes patients; 200 mg, day 16, 24 h urine collection; relative to: baseline).
For CN(C(=O)n1cnc(-c2ccc[n+]([O-])c2)c1)[C@H]1CC[C@H](O)CC1, the concentration was 13.7 ± 0.3 ng/g (Wistar rat, midbrain; oral, 10 mg/kg of BIA 10-2474, 24 h, single dose).
C[C@H](CCC(=O)NCC(=O)O)[C@H]1CC[C@H]2[C@@H]3CC[C@@H]4C[C@H](OS(=O)(=O)O)CC[C@]4(C)[C@H]3C[C@H](O)[C@]12C: “relative peak deviation” 88.1 ± 11.2% (human, plasma; endogenous control diurnal; relative to: daily mean concentration).
COc1ccc2c(c1)CN(C(=O)CCN1CCC(Cc3ccccc3)CC1)CC[S@@+]2[O-] — result for “diastolic blood pressure”: 78 ± 3 mmHg (telemetry; conscious dog; intravenous, 2 mg/kg, 0.5 h).
CCN1/C(=C/C(C)=O)Sc2ccc(F)cc21 gave a PR interval of 91 ± 4 ms (cynomolgus monkey; oral, 30 mg/kg, 1 h post-dose).
The terminal half-life of O=C(c1cccnc1-c1ccncc1)N1CCC(O)(Cc2ccccc2)CC1 is reported as 5.99 h (healthy Japanese adults, plasma; oral, 100 mg twice daily, day 1).
CC(C)n1c(Nc2cccnc2)nc2cnc(Nc3ccc(N4CCN(C)CC4)cc3)nc21 — result for “subjects with adverse event”: 7.1% (refers to: sinus bradycardia; healthy male subjects; oral, 150 mg, study, added: rifampin).
COc1cc(Nc2ncc3c(n2)-c2ccc(Cl)cc2C(c2c(F)cccc2OC)=NC3)ccc1C(=O)O: “patients with increased INR” 13% (cancer patients; oral, dose not given, grade 1 any attribution, added: pembrolizumab).
With C=CC(=O)NC1CCN(c2ncc3ncnc(Nc4ccc(Oc5ccc6c(c5)ncn6C)c(C)c4)c3n2)CC1 the terminal half-life was 260 h (refers to: total radioactivity; healthy male volunteers, plasma; oral solution, 60 mg, added: [14C]-labelled compound).
Cc1ccc(Sc2ccccc2N2CCNCC2)c(C)c1 — result for “participants with TEAE”: 0% (refers to: Pollakiuria; healthy adult men; oral, 10 mg daily, 12 days).
CCc1cc(C(=O)NC)c2nccc(N3CCc4c(cc(Cn5ccnc5)cc4-c4cn(C)nc4C(F)(F)F)C3=O)c2c1 — result for “spleen weight change”: -12.1% (Sprague Dawley rat; oral, 100 mg/kg once daily, 7 days; relative to: vehicle).
For COc1cccc(-c2n[nH]c(SCc3ccccn3)n2)c1OC, the plasma concentration was 400 ng/mL (Sprague-Dawley rats, both sexes; oral dietary, 30 mg/kg/day, day 90, 24 h).
O=C(O)CCCCCCCCCCCCC(=O)O: “relative peak deviation” 69.4 ± 8.1% (human, plasma; endogenous baseline diurnal; relative to: daily mean concentration).
For [18F]c1ccc(-c2ccc3c(c2)[nH]c2ccncc23)cn1, the SUV was 4.75 ± 1.43 (ex vivo biodistribution; B6SJL mouse, normal, kidneys; intravenous, 30 min).
With CC(C)[C@H](C(=O)Nc1ccc(C(=O)NO)cc1)c1ccccc1 the measured concentration was 109 ng/mL (whole blood; 100 ng/mL, 1 h, 4 °C, stability on ice).
With Oc1ccc(/C=C/c2cc(O)cc(O)c2)cc1 the chloride was 102 mEq/L and 99 mEq/L and 100 mEq/L (rat, azoxymethane-injected, blood at sacrifice; 10 mg/kg).
For C[C@@H](Oc1ccc(S(C)(=O)=O)cc1C(=O)N1C[C@@H]2C[C@]2(c2cc(C(F)(F)F)on2)C1)C(F)(F)F, “fed over fasted ratio” read 114% (refers to: AUC0–inf; healthy human volunteers; oral, 10 mg; relative to: fed over fasted).
Under “incidence free thyroxine increase”, CCO[C@H]1CCN(Cc2c(OC)cc(C)c3[nH]ccc23)[C@H](c2ccc(C(=O)O)cc2)C1 is recorded as 0% (PNH patients, active haemolysis; oral, 50 mg, treatment).
CNCc1ccc(-c2[nH]c3cc(F)cc4c3c2CCNC4=O)cc1: “abdominal distension incidence” 25% (patients; oral, 360 mg twice daily, all grades).
With C[C@@H]1COCCN1c1cc([C@]2(O)C[C@H]3CC[C@@H](C2)O3)c2cnn(-c3cc[nH]n3)c2n1 the blood-to-plasma ratio was 0.6 (mouse, whole blood and plasma).
C[C@@H]1CCO[C@H]2Cn3cc(C(=O)NCc4ccc(F)cc4F)c(=O)c(O)c3C(=O)N12 has an AUC(0-24) of 34200 ng·h/mL (population PK, post-hoc; infants aged ≥1 months, 3 to <6 kg, plasma; oral, 4.8 mg granules, steady state, geometric mean).
With CO[C@H]1C[C@@H]2CC[C@@H](C)[C@@](O)(O2)C(=O)C(=O)N2CCCC[C@H]2C(=O)O[C@H]([C@H](C)C[C@@H]2CC[C@@H](OC(=O)NCCOCCOCCOCCOCCOCCOCCOCCOCCC(=O)N3CCc4cc(Cn5nc(-c6ccc7oc(N)nc7c6)c6c(N)ncnc65)ccc4C3)[C@H](OC)C2)C[C@@H](O)[C@H](C)/C=C(\C)[C@@H](O)[C@@H](OC)C(=O)[C@H](C)C[C@H](C)/C=C/C=C/C=C/1C the AUClast ratio was 2.4 (human patients, plasma; intravenous, 1.6 mg, cycle 1; relative to: day 15 over day 1).
Under “average steady-state concentration”, C[C@H]1Oc2cc(cnc2N)-c2c(nn(C)c2C#N)CN(C)C(=O)c2ccc(F)cc21 is recorded as 580 nmol/L (human, plasma; recommended dose, total).
CCCCCCCCCCCCCCCC(=O)N[C@@H](CCC(=O)NCCCC[C@@H]1NC(=O)[C@H]([C@@H](C)CC)NC(=O)[C@@H](NC(=O)[C@@H]2CCCN2C(=O)[C@H](Cc2ccccc2)NC(=O)[C@H](Cc2c[nH]cn2)NC(=O)[C@@H](NC(=O)[C@H](CC(=O)O)NC(=O)CC(C)C)[C@@H](C)O)CSSC[C@@H](C(=O)N[C@@H](CCCCN)C(N)=O)NC(=O)CNC(=O)[C@H](CCCCN)NC(=O)[C@H](CO)NC(=O)[C@H](CCCNC(=N)N)NC(=O)[C@@H]2CCCN2C(=O)[C@H](CCC(=O)O)NC(=O)[C@H](Cc2ccccc2)NC1=O)C(=O)O — result for “AUC(0-inf) share of total”: 61.7 ± 4.53% (healthy volunteers, plasma; subcutaneous, 20 mg; relative to: parent plus metabolites).
